Results collected from several papers.
Lines come from different studies, so protocols differ. ± marks the error that the study gave.

CCS(=O)(=O)N1CC(CC#N)(n2cc(-c3ncnc4[nH]ccc34)cn2)C1 gave a half-life of 5.7 to 7.6 h (healthy Chinese human, plasma; oral, once daily, 2 to 10 mg, day 10).
With CC#CC(=O)NCCCC(=O)c1nc(-c2ccc(C(=O)Nc3ccccn3)cc2)c2c(N)nccn12 the half-life was 10.7 ± 3.9 h (human, healthy control, plasma; oral, 50 mg acalabrutinib, single, arithmetic mean).
CCOc1ccc(Cc2cc([C@@H]3S[C@H](CO)[C@@H](O)[C@H](O)[C@H]3O)c(OC)cc2C)cc1 gave a half-life of 10.5 ± 2.02 h (human, plasma; oral, 5 mg/day, day 1, multiple dose before breakfast).
With COC(=O)c1ccc2c(c1)NC(=O)/C2=C(\Nc1ccc(N(C)C(=O)CN2CCN(C)CC2)cc1)c1ccccc1 the half-life was 42.1 h (human, hepatic impairment Child-Pugh B, plasma; oral, 100 mg single dose, geometric mean).
Nc1nc2c(c(=O)[nH]1)N(C=O)C(CNc1ccc(C(=O)N[C@@H](CCC(=O)O)C(=O)O)cc1)CN2 (stereo partly shown) gave a half-life of 0.3 ± 0.03 h (measured: 5-formyltetrahydrofolate; human, both sexes, plasma; intravenous, 214 nmol).
With CN1CC[C@@H](NC(=O)Nc2ccc(C#N)cc2)C[C@@H]1c1nc2ccccc2[nH]1 the half-life was 18.7 ± 1.8 h (measured: total compound; human, normal hepatic function, plasma; oral, 100 mg, fasted, single dose, arithmetic mean).
The half-life of CCN1CCN(Cc2ccc(Nc3ncc(F)c(-c4cc(F)c5nc(C)n(C(C)C)c5c4)n3)nc2)CC1 is reported as 17.7 h (human patients, plasma; oral, 200 mg, single dose, geometric mean).
CC[C@H](C)[C@@H]1NC(=O)[C@H](CCCNC(=N)N)NC(=O)[C@H](CC(=O)O)NC(=O)[C@H](CC(C)C)NC(=O)[C@H](CCCCN)NC(=O)[C@H](CC(C)C)NC(=O)CNC(=O)[C@H](Cc2ccccc2)NC(=O)[C@@H](NC(=O)CNC(=O)[C@H](CCCCN)NC(=O)[C@H](CO)NC(=O)[C@H](CC(C)C)NC(=O)CNC(=O)[C@H](CCCCN)NC(=O)[C@H](CCCCN)NC(=O)[C@H](CC(N)=O)NC(=O)[C@H](C)NC(=O)CNC(=O)[C@H](CCCCN)NC(=O)[C@H](Cc2ccc(O)cc2)NC(=O)[C@H](CCCCN)NC(=O)[C@H](CCCNC(=N)N)NC(=O)[C@H](C)NC(=O)[C@H](CC(N)=O)NC(=O)[C@@H]2CCCN2C(=O)[C@H](Cc2c[nH]cn2)NC(=O)[C@H](CCC(=O)O)NC(=O)[C@H](CCC(N)=O)NC(=O)CNC(=O)[C@@H]2CCCN2)CSSC[C@@H](C(=O)O)NC(=O)CNC(=O)[C@H](CC(C)C)NC(=O)CNC(=O)[C@H](CO)NC(=O)[C@H](CCSC)NC(=O)[C@H](CO)NC(=O)CNC1=O has a half-life of 0.465 h (human, plasma; subcutaneous, 15 µg/kg once daily, week 52).
The half-life of Cc1cccc(C)c1N(CC(=O)Nc1ccc(-c2ncon2)cc1)C(=O)C1CCS(=O)(=O)CC1 is reported as 7.3 h (human male, plasma; oral, 1200 mg single dose, arithmetic mean, alone).
The half-life of C[C@@H]1CCC[C@H](n2cnc(-c3cc(Cl)ccc3-n3cc(Cl)nn3)cc2=O)c2cc(ccn2)-c2c(cnn2C(F)F)NC1=O is reported as 18.1 h (human, fasted; 20 mg once daily, day 14).
Cc1ccc(NC(=O)c2ccc(CN3CCNCC3)cc2)cc1Nc1nccc(-c2cccnc2)n1 has a half-life of 36.2 h (human, plasma; 400 mg/day imatinib, day 10 of cycle 1, metabolite of imatinib alone, mean).
The half-life of COc1ccc2[nH]c([S+]([O-])Cc3ncc(C)c(OC)c3C)nc2c1 (stereo not shown) is reported as 0.75 h (healthy male humans, plasma; oral, at end of metamizole treatment).
CNc1nc(Nc2ccc(-n3cnc(C)n3)c(OC)c2)nc2c1CC[C@H]2c1ccc(F)cc1 has a half-life of 28 h (healthy humans, both sexes, plasma; oral, 300 mg single dose, high-fat meal).
For COCCCCn1c(C(=O)N(CC(C)C)[C@@H]2CNC[C@H](C(=O)N3CCOCC3)C2)nc2ccccc21, the half-life was 11.2 h (human, elderly, plasma; oral, 80 mg once daily, day 1, mean).
The half-life of CS(=O)(=O)n1cc2c(n1)CN([C@H]1CO[C@H](c3cc(F)ccc3F)[C@@H](N)C1)C2 is reported as 45.2 h (healthy male human, plasma; oral, 200 mg single, fasted, geometric mean).
With Cc1[nH]c(/C=C2\C(=O)Nc3ccccc32)c(C)c1CCC(=O)O the half-life was 3.45 ± 0.983 h (human patients; oral, 200 mg/m^2 twice daily, after meal, dose 55).
O=C(/C=C/c1cccc(S(=O)(=O)Nc2ccccc2)c1)NO has a half-life of 1.97 h (human, normal liver function, plasma; intravenous, 400 mg/m^2, 30 min infusion, single dose, mean).
CO[C@H]1C[C@@H]2CC[C@@H](C)[C@@](O)(O2)C(=O)C(=O)N2CCCC[C@H]2C(=O)O[C@H]([C@H](C)C[C@@H]2CC[C@@H](OC(=O)C(C)(CO)CO)[C@H](OC)C2)CC(=O)[C@H](C)/C=C(\C)[C@@H](O)[C@@H](OC)C(=O)[C@H](C)C[C@H](C)/C=C/C=C/C=C/1C has a half-life of 15.6 h (human; intravenous, 60 mg/m^2 weekly, cycle 1, median, together with: valproic acid).
The half-life of CCOc1ccc(Cc2cc([C@]34OC[C@](CO)(O3)[C@@H](O)[C@H](O)[C@H]4O)ccc2Cl)cc1 is reported as 11.3 ± 3.28 h (healthy human, plasma; oral, 15 mg, 20% glucose solution, together with: glimepiride 1 mg).
With CCCCC1(CCCC)CN(c2ccccc2)c2cc(SC)c(OCC(=O)N[C@@H](C(=O)NCC(=O)O)c3ccccc3)cc2S(=O)(=O)C1 the half-life was 2.17 h (LC-MS/MS; human, plasma; oral, 2.5 mg, single dose, fasted).
With CC(=O)c1c(C)c2cnc(Nc3ccc(N4CCNCC4)cn3)nc2n(C2CCCC2)c1=O the half-life was 19.5 ± 7 h (human; oral, 50 mg/m^2 repeated doses, day 21).
Cc1c(Cl)c(C)[n+]([O-])c(Cl)c1-c1noc(-c2cc(O)c(O)c([N+](=O)[O-])c2)n1 gave a half-life of 0.748 ± 0.19 h (LC-MS/MS; healthy male human, fasted, plasma; oral, 25 mg single dose, capsule).
The half-life of C[C@H](N)C(=O)N1C[C@H](CCCB(O)O)[C@](N)(C(=O)O)C1 is reported as 6 ± 2.2 h (human, plasma; oral, 100 mg twice daily, cycle 1 day 15).
With CN1C(=O)[C@@H](NC(=O)c2nnc(Cc3ccccc3)[nH]2)COc2ccccc21 the half-life was 2.4 h (human male, plasma; oral, 120 mg twice daily, day 14).
For COc1cc(Nc2ncc3c(n2)-c2ccc(Cl)cc2C(c2c(F)cccc2OC)=NC3)ccc1C(=O)O, the half-life was 21 h (human, plasma; oral, 50 mg twice daily, day 7, steady state).
C=CC[C@@H]1/C=C(\C)C[C@H](C)C[C@H](OC)[C@H]2O[C@@](O)(C(=O)C(=O)N3CCCC[C@H]3C(=O)O[C@H](/C(C)=C/[C@@H]3CC[C@@H](O)[C@H](OC)C3)[C@H](C)[C@@H](O)CC1=O)[C@H](C)C[C@@H]2OC has a half-life of 37.5 h (healthy human subjects, whole blood; oral, 5 mg single dose, arithmetic mean, together with: isavuconazole 200 mg once daily after loading).
With O=C(NC[C@H](O)CO)c1ccncc1Nc1ccc(I)cc1F the half-life was 5.56 h (human patients, plasma; oral, 60 mg single dose, day 1, median, together with: FOLFIRI).
CO[C@H]1C[C@@H]2CC[C@@H](C)[C@@](O)(O2)C(=O)C(=O)N2CCCC[C@H]2C(=O)O[C@H]([C@H](C)C[C@@H]2CC[C@@H](O)[C@H](OC)C2)CC(=O)[C@H](C)/C=C(\C)[C@@H](O)[C@@H](OC)C(=O)[C@H](C)C[C@H](C)/C=C/C=C/C=C/1C has a half-life of 26 h (human, whole blood; oral, 20 mg, without grapefruit juice).
The half-life of CNC(=O)c1c(C)oc2cc(Oc3ncnc4cc(OC)c(OC)cc34)ccc12 is reported as 33.6 h (human, plasma; oral, 5 mg, fasted).
CS(=O)(=O)CCNCc1ccc(-c2ccc3ncnc(Nc4ccc(OCc5cccc(F)c5)c(Cl)c4)c3c2)o1 has a half-life of 16.6 h (human, plasma; oral, multiple dose).
With O=c1[nH]c(=O)c(Cc2cccc(C(F)(F)F)c2)c([C@H]2CC[C@H](c3ccccc3)CC2)[nH]1 the half-life was 17.3 h (human, fasted, plasma; oral, 1500 mg single dose, geometric mean).
CNC(=O)c1ccc(-c2cnc3ncc(Cc4ccc5ncccc5c4)n3n2)cc1F gave a half-life of 11.2 h (healthy human subjects, plasma; oral, 400 mg, arithmetic mean, alone).
CCn1c(=O)c2c(nc(/C=C/c3ccc(OC)c(OC)c3)n2C)n(CC)c1=O has a half-life of 31.5 h (healthy human, plasma; oral, 40 mg single dose, arithmetic mean, together with: rifampin 600 mg/day steady state).
For C=C(C)[C@@H]1CC[C@]2(NCCN3CCS(=O)(=O)CC3)CC[C@]3(C)[C@H](CC[C@@H]4[C@@]5(C)CC=C(C6=CC[C@@](CF)(C(=O)O)CC6)C(C)(C)[C@@H]5CC[C@]43C)[C@@H]12, the half-life was 26.5 h (healthy human volunteers; oral, 200 mg, tablet, moderate-fat meal, arithmetic mean).
With O=C(c1cccnc1-c1ccncc1)N1CCC(O)(Cc2ccccc2)CC1 the half-life was 4.67 h (healthy human, plasma; oral, 400 mg once daily, day 1, arithmetic mean).
COc1cc2ncnc(Nc3ccc(F)c(Cl)c3)c2cc1OCCCN1CCOCC1 gave a half-life of 22.6 h (human, plasma; oral, 250 mg, median).
C=CC(=O)N1CCC([C@@H]2CCNc3c(C(N)=O)c(-c4ccc(Oc5ccccc5)cc4)nn32)CC1 has a half-life of 5.3 h (human; oral, 160 mg, single dose, mean).
For Cc1ccc(NC(=O)c2ccc(CN3CCN(C)CC3)cc2)cc1Nc1nccc(-c2cncc(-c3oncc3C)c2)n1, the half-life was 25.9 h (older healthy human adults, plasma; oral, 25.0 mg single dose, fed, mean).
For O=CC[C@@H](O)[C@H](O)[C@H](O)CO, the half-life was 8.2 ± 1.9 h (HPLC-fluorescence; human patients, plasma; oral, 45 mg/kg/day, cycle 2).
CCOc1cc([C@@H](CS(C)(=O)=O)N2C(=O)c3cccc(NC(C)=O)c3C2=O)ccc1OC has a half-life of 7.64 h (healthy human, male, plasma; oral, 20 mg single dose, without ketoconazole).

A few entries again:
Cc1c(Cl)c(C)[n+]([O-])c(Cl)c1-c1noc(-c2cc(O)c(O)c([N+](=O)[O-])c2)n1 gave a half-life of 0.748 ± 0.19 h (LC-MS/MS; healthy male human, fasted, plasma; oral, 25 mg single dose, capsule).
With O=C(NC[C@H](O)CO)c1ccncc1Nc1ccc(I)cc1F the half-life was 5.56 h (human patients, plasma; oral, 60 mg single dose, day 1, median, together with: FOLFIRI).
With CC#CC(=O)NCCCC(=O)c1nc(-c2ccc(C(=O)Nc3ccccn3)cc2)c2c(N)nccn12 the half-life was 10.7 ± 3.9 h (human, healthy control, plasma; oral, 50 mg acalabrutinib, single, arithmetic mean).
